# Measured values collected from several papers.
# Each line is one published result; not all experiments were run side by side. ± marks the error that the study gave.
SMILES,test,test system,conditions,scale,measurement,value
O=C(N[C@@H](CC1CCCCC1)C(=O)N[C@@H](C[C@H]1CCNC1=O)C(=O)C(=O)NC1CC1)OCc1cccc(Cl)c1,,"rat, Sprague-Dawley, female, plasma","intravenous, 10 mg/kg",,volume of distribution,0.0022 (mg/kg)/(ng/mL)
COc1cc(F)c(C(C)C)cc1C1=C(CN2C(=O)O[C@H](c3cc(C(F)(F)F)cc(C(F)(F)F)c3)[C@@H]2C)CC(C)(C)CC1,non-compartmental analysis,"healthy male subjects, plasma","oral, 400 mg single dose",,Vd/F per body weight,154 L/kg
CCCCCCCCCCCCCCCC(=O)N[C@@H](CCCCN)C(=O)N[C@@H](CCCCN)C(=O)N[C@@H](CO)C(=O)N[C@@H](CCCNC(=N)N)C(=O)N[C@@H](C)C(=O)N[C@@H](CC(C)C)C(=O)N[C@@H](Cc1ccccc1)C(N)=O,,"cynomolgus monkey, male","30 mg/kg, day 1",,prothrombin time,12 ± 0.6 s
CC(C)C[C@H](NC(=O)[C@H](CCCNC(=N)N)NC(=O)[C@H](CCC(N)=O)NC(=O)[C@@H](NC(=O)[C@H](C)NC(=O)[C@@H]1CSSC[C@H](NC(=O)[C@@H](N)CCCCN)C(=O)N[C@@H](CC(N)=O)C(=O)N[C@@H]([C@@H](C)O)C(=O)N[C@@H](C)C(=O)N[C@@H]([C@@H](C)O)C(=O)N1)[C@@H](C)O)C(=O)N[C@@H](C)C(=O)N[C@@H](CC(N)=O)C(=O)N[C@@H](Cc1ccccc1)C(=O)N[C@@H](CC(C)C)C(=O)N[C@H](C(=O)N[C@@H](CCCNC(=N)N)C(=O)N[C@@H](CO)C(=O)N[C@@H](CO)C(=O)N[C@@H](CC(N)=O)C(=O)N[C@@H](CC(N)=O)C(=O)N[C@@H](Cc1ccccc1)C(=O)NCC(=O)N[C@@H](C)C(=O)N1CCC[C@H]1C(=O)N[C@@H](CC(C)C)C(=O)N[C@@H](CO)C(=O)N[C@@H](CO)C(=O)N[C@H](C(=O)N[C@@H](CC(N)=O)C(=O)N[C@H](C(=O)NCC(=O)N[C@@H](CO)C(=O)N[C@@H](CC(N)=O)C(=O)N[C@H](C(=O)N[C@@H](Cc1ccc(O)cc1)C(N)=O)[C@@H](C)O)C(C)C)[C@@H](C)O)C(C)C,,PBS,"500 µM, 24 h, pH 7.4, together with: equimolar insulin",reference: time zero,loss from soluble fraction,< 17%
COCC1CN(C2CCN(c3cc(OC)c(Nc4ncc(Br)c(Nc5ccc6c(c5P(C)(C)=O)OCCO6)n4)cc3C)CC2)C1,,"human, plasma","oral, 10 to 150 mg multiple doses, 21 days",,accumulation ratio of AUC,2.1 to 4.7
[99Tc+].[C-]#[N+]CC(C)(C)OC.[C-]#[N+]CC(C)(C)OC.[C-]#[N+]CC(C)(C)OC.[C-]#[N+]CC(C)(C)OC.[C-]#[N+]CC(C)(C)OC.[C-]#[N+]CC(C)(C)OC,,"suspended hepatocytes, rat",up to 60 min,,linear uptake range,2.5 min
CC[C@H](C)[C@H](NC(=O)[C@H](Cc1ccccc1)NC(=O)[C@H](CCCCN)NC(=O)[C@H](CCCNC(=N)N)NC(=O)[C@H](Cc1ccccc1)NC(=O)[C@H](Cc1ccccc1)NC(=O)[C@H](CCCCN)NC(=O)[C@H](CO)NC(=O)[C@H](CC(C)C)NC(=O)[C@H](CCCNC(=N)N)NC(=O)[C@H](CCSC)NC(=O)[C@H](C)N)C(=O)N[C@@H](CC(C)C)C(=O)N[C@@H](CCCN)C(=O)N[C@@H](CCCNC(=N)N)C(=O)N[C@@H](CCCCN)C(=O)N[C@@H](CCCCN)C(=O)O,circular dichroism,20% TFE in PBS,"200 µM, pH 7.4, 25 °C",,helicity,14.9%
CONC(=O)/C=C/c1cccc(S(=O)(=O)Nc2ccccc2)c1,,"human, severe liver dysfunction, plasma","intravenous, 400 mg/m^2 belinostat, cycle 1 day -7, geometric mean",reference: metabolite over belinostat,Cmax metabolic ratio,0.134
COc1cccc(NCc2cn(-c3ccccc3)nc2-c2ccc(OCc3ccccc3)cc2)c1,,"rat, gastric mucosa","oral, 60 mg/kg, 17 h",reference: control score subtracted,ulcer severity index,0.76 ± 0.36
COc1c2c(cc3oc(COC4OC(CO)C(O)C(O)C4O)cc(=O)c13)OC(C(C)(C)O)C2 (centres unmarked),,methanol,"2 mg/mL, 6 h, room temperature",,stock solution stability,93.9 % accuracy
CC(C)(Sc1cc[n+]([O-])cc1-c1ccc(C#N)c2ccccc12)C(=O)OC1OC(C(=O)O)C(O)C(O)C1O (centres unmarked),,"adult men, plasma","oral, 15 mg verinurad, moderate renal impairment",reference: normal renal function,Cmax increase,56%
NS(=O)(=O)c1ccc(N2N=C(C(F)(F)F)CC2c2ccc(F)cc2F)cc1 (centres unmarked),,"Beagle dog, both sexes, plasma","oral, 1 mg/kg, single dose, median",,Tlast,108 h
CC=C1C(OC2OC(CO)C(O)C(O)C2O)OC=C(C(=O)OC)C1CC(=O)OCC1OC(OCCc2ccc(O)cc2)C(O)C(O)C1O (centres unmarked),,"mouse intestinal contents, anaerobic","10 µg/mL, 1 h",,metabolized parent drug,100%
C[C@H](NC(=O)[C@H](C)NC(=O)[C@H](C)NC(=O)[C@H](CCCNC(=N)N)NC(=O)[C@H](CCCNC(=N)N)NC(=O)[C@H](C)NC(=O)[C@H](C)NC(=O)[C@H](C)NC(=O)[C@H](C)NC(=O)[C@H](CCCNC(=N)N)NC(=O)[C@H](CCCNC(=N)N)NC(=O)[C@H](C)NC(=O)[C@H](C)NC(=O)[C@H](C)NC(=O)[C@H](C)NC(=O)[C@H](CCCNC(=N)N)NC(=O)[C@H](CCCNC(=N)N)NC(=O)c1ccc2c(c1)C(=O)OC21c2ccc(O)cc2Oc2cc(O)ccc21)C(=O)N[C@@H](C)C(=O)N[C@@H](CCCNC(=N)N)C(=O)N[C@@H](CCCNC(=N)N)C(=O)O,,bovine cartilage explants,"7 days, together with: 10 x PBS",,desorbed fraction,50 to 80%
CC(C)(O)c1ncc([S@](N)(=O)=NC(=O)Nc2c3c(cc4c2CCC4)CCC3)s1,,"healthy human volunteers, plasma","oral, 100 mg once daily, day 1, spray-dried dispersion",,Tmax,3 h
[11CH3]Oc1ccc(Cc2ccncc2)nc1-c1cccc([N+](=O)[O-])c1,ultrafiltration,"monkey, plasma",,,fraction unbound,7.8%
CSc1cc(C)nc(SC)c1NC(=O)CN1CCN(CCSc2nc3ccccc3[nH]2)CC1.Cl,,"female Crl:CD1 (ICR) mice, olfactory bulb","intranasal, 10 µL solution daily, 120 min, 7 days dosing",,tissue concentration,0 ng/g
CCCCCCCCCCCCCCCC(=O)N[C@@H](CCC(=O)NCCCC[C@H](NC(=O)[C@H](C)NC(=O)[C@H](C)NC(=O)[C@H](CCC(N)=O)NC(=O)CNC(=O)[C@H](CCC(=O)O)NC(=O)[C@H](CC(C)C)NC(=O)[C@H](Cc1ccc(O)cc1)NC(=O)[C@H](CO)NC(=O)[C@H](CO)NC(=O)[C@@H](NC(=O)[C@H](CC(=O)O)NC(=O)[C@H](CO)NC(=O)[C@@H](NC(=O)[C@H](Cc1ccccc1)NC(=O)[C@@H](NC(=O)CNC(=O)[C@H](CCC(=O)O)NC(=O)[C@H](C)NC(=O)[C@@H](N)Cc1cnc[nH]1)[C@@H](C)O)[C@@H](C)O)C(C)C)C(=O)N[C@@H](CCC(=O)O)C(=O)N[C@@H](Cc1ccccc1)C(=O)N[C@H](C(=O)N[C@@H](C)C(=O)N[C@@H](Cc1c[nH]c2ccccc12)C(=O)N[C@@H](CC(C)C)C(=O)N[C@H](C(=O)N[C@@H](CCCNC(=N)N)C(=O)NCC(=O)N[C@@H](CCCNC(=N)N)C(=O)NCC(=O)O)C(C)C)[C@@H](C)CC)C(=O)O,,"healthy humans, plasma",,reference: compound over Victoza,Cmax ratio,112%
CN1CCC[C@]1(C)/C=C/S(=O)(=O)NC(=O)Nc1c2c(cc3c1CCC3)CCC2,,"human, urine","oral, 100 mg single dose",,amount recovered in urine,76.6 mg
Cc1ccc(/N=N/c2c(O)ccc3ccccc23)c(C)c1,,rat whole blood QC samples,"16.0 µg/L, 8 h, room temperature, short-term stability",,measured concentration,15.9 µg/L
CNCCCn1c2ccc([N+](=O)[O-])cc2c(=O)n1Cc1ccccc1,resazurin,"peritoneal macrophages, BALB/c mice","48 h, 10% FBS",,CC50,2500 ± 400 nM
CC[C@H](C)[C@H](NC(=O)[C@H](Cc1ccccc1)NC(=O)[C@H](CCCCN)NC(=O)[C@H](CCCNC(=N)N)NC(=O)[C@H](Cc1ccccc1)NC(=O)[C@H](Cc1ccccc1)NC(=O)[C@H](CCCCN)NC(=O)[C@H](CO)NC(=O)[C@H](CC(C)C)NC(=O)[C@H](CCCNC(=N)N)NC(=O)[C@H](CCSC)NC(=O)[C@H](C)N)C(=O)N[C@@H](CC(C)C)C(=O)N[C@@H](CCCCN)C(=O)N[C@@H](CCCNC(=N)N)C(=O)N[C@@H](CCCCN)C(=O)N[C@@H](CCCCN)C(=O)O,circular dichroism,20% TFE in PBS,"200 µM, pH 7.4, 25 °C",,helicity,14.1%
O=C(CCc1ccc(CNC(C(=O)OC2CCCC2)C2CCCCC2)cn1)NO (centres unmarked),,human,"oral, 50 mg, single dose, geometric mean",,Vz/F,140 L
COc1ccc(/C=C/C2=[N+]3C(=C(C=O)c4c(C)c(Br)c(/C=C/c5ccc(OC)cc5)n4[B-]3(F)F)C(C)=C2Br)cc1,,DMSO/methanol 1:1,"1 h, together with: 645 nm light, 9.00 J/cm2",,photostability,unstable
CC(C)c1cnc(-c2cc(Cl)ccc2F)cc1Nc1ccncc1C(=O)NC(CO)CO,,"human, advanced solid tumour","oral, dose not given, phase I monotherapy",,"AST increase incidence, all grades",23.8%
Cn1c(=O)oc2ccc(-c3ccc(CC(C#N)NC(=O)C4CNCCCO4)c(F)c3)cc21 (centres unmarked),,human,"oral, 20 mg once daily, TEAE, multiple ascending dose",,mouth ulceration incidence,11.1%
O=C([O-])CN1CCN(CC(=O)[O-])CCN(CC(=O)NCC2CCC(C(=O)NC(Cc3ccc4ccccc4c3)C(=O)NCCCCC(NC(=O)NC(CCC(=O)O)C(=O)O)C(=O)O)CC2)CCN(CC(=O)[O-])CC1.[44Sc+3] (centres unmarked),"PET/CT dosimetry, OLINDA/EXM","human, kidneys",,,organ absorbed dose,0.456 mSv/MBq
Cc1ccc(OCC(=O)O)cc1,,"Sprague-Dawley rat, female, plasma","oral, 100 mg/kg/day of parent drug, day 1, 90-day repeated dosing",,t1/2,2.28 h
CCC(=O)N[C@@H](C)C(=O)OCC(=O)N[C@@H](C)C(=O)O,,water,"pH 7, 65 °C",,depolymerization half-life,4.63 h
COC(=O)C(c1ccccc1Cl)N1CCC(SCC(=O)c2cccc(OC)c2)C(=CC(=O)O)C1 (mixture of isomers),HPLC-MS/MS,feline citrate plasma,"100 ng/mL, 12 h, -20 °C, storage stability",,deviation from nominal,-9%
[123I]c1ccc2nc(-c3ccc(-n4ccnn4)nc3)cn2c1,,"Alzheimer's disease patients, venous plasma","intravenous, from 180 min",,parent fraction,< 5%
N=C(N)NCCC[C@@H]1NC(=O)[C@H](Cc2c[nH]c3ccccc23)NC(=O)[C@@H](CC2CCCCC2)NC(=O)[C@@H]2CCCN2C(=O)[C@@H](NC(=O)CCc2ccccc2)CCCNC1=O,,"C57BL/6J mouse, plasma brain","intravenous, 1 mg/kg single dose",,MRT(0-last),0.64 h
CCCC(CCC)NC(=O)c1ccc(OS(=O)(=O)O)c(OC)c1,,"female Sprague-Dawley rat, plasma","oral, 50 mg/kg of parent drug",,Tmax,0.88 h
CN1CCC(N[C@@H]2CCc3[nH]c4c(C(N)=O)ccc(-c5ccccc5Cl)c4c3C2)CC1,,"mouse, plasma","oral, 10 mg/kg",,MRT(0-inf),8.89 h
O=C(O)C1CN(Cc2ccc(-c3noc(-c4ccc(OCC[18F])c(C(F)(F)F)c4)n3)cc2)C1,,"male Sprague-Dawley rat, blood","intravenous, 120 min",,tissue uptake,0.178 ± 0.039 %ID/g
CC(C)[C@H](NC(=O)CNC(=O)[C@H](CCC(N)=O)NC(=O)[C@H](C)N)C(=O)O,LC-MS/MS,"human, male, plasma","intravenous, 20 mg/kg three times daily, day 3, first dose, 10 min infusion, geometric mean",,clearance,583 mL/min/kg
CC(=O)N[C@H](C)c1cc(Cl)ccc1Cn1c(=S)[nH]c(=O)c2[nH]ccc21,,"dog, both sexes, plasma","oral, 100 mg/kg/day",reference: dog over human 15 mg,exposure ratio,0.4
CCCC1OC2CC3C4CCC5=CC(=O)C=CC5(C)C4C(O)CC3(C)C2(C(=O)COC(=O)C(C)N)O1 (centres unmarked),,rat lung homogenate,"200 µg/mL, 24 h",,hydrolysed conjugate,87.8%

# Excerpt of the above:
SMILES,test,test system,conditions,scale,measurement,value
C[C@H](NC(=O)[C@H](C)NC(=O)[C@H](C)NC(=O)[C@H](CCCNC(=N)N)NC(=O)[C@H](CCCNC(=N)N)NC(=O)[C@H](C)NC(=O)[C@H](C)NC(=O)[C@H](C)NC(=O)[C@H](C)NC(=O)[C@H](CCCNC(=N)N)NC(=O)[C@H](CCCNC(=N)N)NC(=O)[C@H](C)NC(=O)[C@H](C)NC(=O)[C@H](C)NC(=O)[C@H](C)NC(=O)[C@H](CCCNC(=N)N)NC(=O)[C@H](CCCNC(=N)N)NC(=O)c1ccc2c(c1)C(=O)OC21c2ccc(O)cc2Oc2cc(O)ccc21)C(=O)N[C@@H](C)C(=O)N[C@@H](CCCNC(=N)N)C(=O)N[C@@H](CCCNC(=N)N)C(=O)O,,bovine cartilage explants,"7 days, together with: 10 x PBS",,desorbed fraction,50 to 80%
CSc1cc(C)nc(SC)c1NC(=O)CN1CCN(CCSc2nc3ccccc3[nH]2)CC1.Cl,,"female Crl:CD1 (ICR) mice, olfactory bulb","intranasal, 10 µL solution daily, 120 min, 7 days dosing",,tissue concentration,0 ng/g
CCC(=O)N[C@@H](C)C(=O)OCC(=O)N[C@@H](C)C(=O)O,,water,"pH 7, 65 °C",,depolymerization half-life,4.63 h
